# Published values gathered from unrelated publications.
# Compare with care: the assays were run in different laboratories. ± gives the spread as reported.
# Target: Cholinesterase (BCHE, Equus caballus, UniProt P81908)
# Sequence of UniProt P81908 (whole entry, looked up): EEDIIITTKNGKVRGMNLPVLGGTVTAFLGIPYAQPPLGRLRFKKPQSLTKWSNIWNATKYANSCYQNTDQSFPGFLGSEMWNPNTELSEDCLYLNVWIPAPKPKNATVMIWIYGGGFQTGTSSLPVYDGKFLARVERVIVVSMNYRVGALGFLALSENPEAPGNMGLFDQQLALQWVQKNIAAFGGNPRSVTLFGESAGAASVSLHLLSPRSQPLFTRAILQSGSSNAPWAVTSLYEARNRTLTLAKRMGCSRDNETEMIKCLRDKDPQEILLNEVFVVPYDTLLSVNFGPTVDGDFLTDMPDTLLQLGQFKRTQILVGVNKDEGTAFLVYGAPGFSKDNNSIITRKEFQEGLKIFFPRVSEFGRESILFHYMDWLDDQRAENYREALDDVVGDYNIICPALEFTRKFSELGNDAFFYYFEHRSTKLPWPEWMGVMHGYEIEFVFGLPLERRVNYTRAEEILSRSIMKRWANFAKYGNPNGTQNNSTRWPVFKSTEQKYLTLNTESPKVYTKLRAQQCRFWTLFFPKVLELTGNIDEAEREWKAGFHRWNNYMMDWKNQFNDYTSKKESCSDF
SMILES,assay,conditions,IC50
"COc1c(OC2OC(CO)C(O)C(O)C2O)cc2c3c1-c1ccccc1CC3NCC2 (single isomer, unassigned; (-))","enzyme activity, inhibitor, Ellman",,175.6 ± 1.45 µM
CC(=O)C1=C(C)NC(SCCCSc2nnc(Cc3ccccc3Nc3c(Cl)cccc3Cl)n2-c2ccc(Cl)c(Cl)c2)=NC1c1ccccc1 (stereo not shown),"enzyme activity, inhibitor, Ellman",,11.2 µM
COC(=O)C1=CO[C@@H](OC(C)=O)[C@@H]2C(Cn3cc(CCN4C(=O)c5ccccc5C4=O)nn3)=CC[C@H]12,,horse serum enzyme,203 ± 1.7 µM
CCCC(=O)Oc1ccc2c(O)c3ccccc3cc2c1O,"enzyme activity, inhibitor, Ellman",pH 8,> 250 µM
O=C(/C=C/c1ccc(Br)cc1)c1cc2ccccc2oc1=O,"enzyme activity, inhibitor",,> 40 µM
COc1cc(/C=N/NC(=O)COc2ccc(Sc3ccc(OCC(=O)N/N=C/c4cc(OC)c(OC)c(OC)c4)cc3)cc2)cc(OC)c1OC,"enzyme activity, inhibitor, Ellman",,44.7 µM
C=CCc1ccc(O)c(OC)c1,"enzyme activity, inhibitor, Ellman",,387 µM
CCN(CCCCOc1c(OC)cc(C(=O)N2CCC(Cc3ccccc3)CC2)cc1OC)Cc1ccccc1,"enzyme activity, inhibitor, Ellman",,0.77 µM
"COc1cccc2c1C(O)C1c3c(cc4c(c3-2)OCO4)CCN1C (single isomer, unassigned; (-))","enzyme activity, inhibitor, Ellman",,5.87 ± 0.06 µM
O=C(/C=C/c1cccc(Br)c1)c1cc2ccccc2oc1=O,"enzyme activity, inhibitor",,> 40 µM
COCc1cc(C)nc(SCC[N+](C)(C)CC(=O)Nc2cccc(C(F)(F)F)c2)c1C#N,inhibitor,,5.5 µM
COc1cc(Br)cc(/C=N/N2C(=O)c3ccccc3NC2c2cc(Br)cc(OC)c2O)c1O (stereo not shown),"enzyme activity, inhibitor, Ellman",,11.9 µM
O=C1C=C(OCCCCCCCCn2cc(CNc3ccc4nccnc4c3)nn2)C(=O)c2ccccc21,"enzyme activity, inhibitor, Ellman",,0.22 µM
C=CCN1CCC(N2CCCC2=O)c2cc(C)ccc21 (stereo not shown),"enzyme activity, inhibitor, Ellman",,< 32 µM
O=C1c2ccccc2NC(c2cc(Cl)ccc2O)N1N=Cc1cc(Cl)ccc1O (stereo not shown),"enzyme activity, inhibitor, Ellman",,4.6 µM
"COc1ccc2c(c1OC)CC1c3c(cc4c(c3-2)OCO4)CC[N+]1(C)[O-] (single isomer, unassigned; (-))","enzyme activity, inhibitor, Ellman",,150.6 ± 0.54 µM
O=C(COc1ccc(Sc2ccc(OCC(=O)N/N=C/c3cccc(O)c3)cc2)cc1)N/N=C/c1cccc(O)c1,"enzyme activity, inhibitor, Ellman",,60.3 µM
O=C1CCCC2=C1C(c1c[nH]c3ccccc13)n1c(sc(=Cc3c[nH]c4ccccc34)c1=O)=N2 (stereo not shown),"enzyme activity, inhibitor, Ellman",,17.2 µM
COc1ccc(O)c(/C=N/N2C(=O)c3ccccc3NC2c2cc(OC)ccc2O)c1 (stereo not shown),"enzyme activity, inhibitor, Ellman",,4 µM
COC(=O)CC1NC(C(C)=O)=NN(c2ccc3c(C)cc(=O)oc3c2)C1=O (stereo not shown),"enzyme activity, inhibitor, Ellman",pH 8,1.1 µM
CC(=O)Oc1ccc2c(OC(C)=O)c3ccccc3cc2c1OC(C)=O,"enzyme activity, inhibitor, Ellman",pH 8,69.2 µM
COC(=O)C1=CO[C@@H](OC(C)=O)[C@@H]2C(Cn3cc(CCBr)nn3)=CC[C@H]12,,horse serum enzyme,31.8 µM
O=C1C=C(OCCCn2cc(CNc3ccc4nccnc4c3)nn2)C(=O)c2ccccc21,"enzyme activity, inhibitor, Ellman",,15.4 µM
O=C(/C=C/c1ccccc1Br)c1cc2ccccc2oc1=O,"enzyme activity, inhibitor",,> 40 µM
COc1ccc(C2N=C(SCCCSc3nnc(Cc4ccccc4Nc4c(Cl)cccc4Cl)n3-c3ccc(Cl)c(Cl)c3)NC(C)=C2C(C)=O)cc1 (stereo not shown),"enzyme activity, inhibitor, Ellman",,0.94 µM
CC(=O)C(=NNc1ccc2c(C)cc(=O)oc2c1)N1CCNCC1,"enzyme activity, inhibitor, Ellman",pH 8,367 µM
Cc1nc2ccc(NCc3cn(CCCCCCOC4=CC(=O)c5ccccc5C4=O)nn3)cc2nc1C,"enzyme activity, inhibitor, Ellman",,3.8 µM
O=Cc1ccc(/C=N/NC(=O)COc2ccc(Sc3ccc(OCC(=O)N/N=C/c4ccc(C=O)cc4)cc3)cc2)cc1,"enzyme activity, inhibitor, Ellman",,93.3 µM
COc1ccc2cc(/C=N/C3CCN(Cc4ccccc4)CC3)ccc2c1,inhibitor,,> 10 µM
CC(C)=CCCC1(C)C=Cc2c(ccc3cc(-c4cc(O)cc(O)c4CC=C(C)C)oc23)O1 (stereo not shown),"enzyme activity, inhibitor",,1.51 µM
COC(=O)C1=CO[C@@H](O)[C@@H]2C(Cn3cc(-c4ccccc4)nn3)=CC[C@H]12,,horse serum enzyme,537 ± 2 µM
O=C(COc1ccc(Sc2ccc(OCC(=O)N/N=C/c3ccccc3Cl)cc2)cc1)N/N=C/c1ccccc1Cl,"enzyme activity, inhibitor, Ellman",,113 µM
COc1cc2c(cc1O)C1Cc3ccc(O)c(OC)c3C[N+]1(C)CC2 (stereo not shown),"enzyme activity, inhibitor, Ellman",,13.5 ± 0.59 µM
CC(=O)C1=NN(c2ccc3c(C)cc(=O)oc3c2)C(=O)C(Cc2ccccc2)N1 (stereo not shown),"enzyme activity, inhibitor, Ellman",pH 8,442 µM
O=c1oc2c(CNCCc3cccc(F)c3)c(O)ccc2c2c1CCC2,"enzyme activity, inhibitor, Ellman",,24 µM
COc1cc2c(cc1O)CCN1Cc3c(ccc(O)c3OC)C[C@@H]21,"enzyme activity, inhibitor, Ellman",,109.3 ± 0.97 µM
O=C(COc1ccc(Sc2ccc(OCC(=O)N/N=C/c3ccccc3O)cc2)cc1)N/N=C/c1ccccc1O,"enzyme activity, inhibitor, Ellman",,78.9 µM
O=C(/C=C/c1cccc(F)c1)c1cc2ccccc2oc1=O,"enzyme activity, inhibitor",,30 µM
COc1ccc(-c2c(C#N)c(N)nc3c2CCc2nc4c(cc2-3)c(C)nn4-c2ccccc2)cc1,"enzyme activity, inhibitor, Ellman",,> 818 µM
COC(=O)CCC1NC(C(C)=O)=NN(c2ccc3c(C)cc(=O)oc3c2)C1=O (stereo not shown),"enzyme activity, inhibitor, Ellman",pH 8,3.4 µM
COC(=O)C1=CO[C@@H](O)[C@@H]2C(Cn3cc(-c4ccc(OC)cc4)nn3)=CC[C@H]12,,horse serum enzyme,109.1 ± 0.61 µM
COc1cc(/C=N/NC(=O)COc2ccc(Sc3ccc(OCC(=O)N/N=C/c4ccc(O)c(OC)c4)cc3)cc2)ccc1O,"enzyme activity, inhibitor, Ellman",,65.7 µM
Cc1nc(-c2ccc(Cl)cc2)nc2sc3c(=O)n(CCN4CCOCC4)cnc3c12,"enzyme activity, inhibitor, Ellman",,149 µM
CC(=O)Oc1ccc2c(O)c3ccccc3cc2c1O,"enzyme activity, inhibitor, Ellman",pH 8,85.2 µM
CCN1CCN(C(=NNc2ccc3c(C)cc(=O)oc3c2)C(C)=O)CC1,"enzyme activity, inhibitor, Ellman",pH 8,216 µM
O=C(/C=C/c1ccc(O)cc1)OC[C@H]1O[C@@H](Oc2c(-c3ccc(O)cc3)oc3cc(O)cc(O)c3c2=O)[C@H](O)[C@@H](OC(=O)/C=C/c2ccc(O)cc2)[C@@H]1O,"enzyme activity, inhibitor, Ellman",,85.2 µM
Cc1nc2ccc(NCc3cn(CCCCCCCCOC4=CC(=O)c5ccccc5C4=O)nn3)cc2nc1C,"enzyme activity, inhibitor, Ellman",,1.7 µM
COc1cc2c(cc1OC)[C@@H]1Cc3ccc(OC)c(OC)c3C[N+]1(C)CC2 (stereo partly shown),"enzyme activity, inhibitor, Ellman",,234.3 ± 1.08 µM
CC(=O)C(Cl)=NNc1ccc2c(C)cc(=O)oc2c1,"enzyme activity, inhibitor, Ellman",pH 8,458 µM
CC(C)=CCCC(C)=CCCC(C)=CCc1c(O)cc(O)c(CC=C(C)C)c1-c1cc2ccc(O)cc2o1,"enzyme activity, inhibitor",,> 200 µM
"COc1cccc2c1CC1c3c(cc4c(c3-2)OCO4)CCN1C (single isomer, unassigned; (-))","enzyme activity, inhibitor, Ellman",,2.8 ± 0.07 µM
NNC(=O)COc1ccc(Sc2ccc(OCC(=O)NN)cc2)cc1,"enzyme activity, inhibitor, Ellman",,21.8 µM
O=C(CNC(=S)N/N=C/c1ccc([N+](=O)[O-])cc1)c1ccccc1Cl,"enzyme activity, inhibitor, Ellman",,145 µM
CCN(CC)c1ccc(/C=N/NC(=O)COc2ccc(Sc3ccc(OCC(=O)N/N=C/c4ccc(N(CC)CC)cc4)cc3)cc2)cc1,"enzyme activity, inhibitor, Ellman",,109 µM
O=C(NCCCCCn1ccc2ccc(F)cc21)Oc1cccc(F)c1,"enzyme activity, inhibitor, HPLC",,1.5 µM

# For quick reference, copied from above:
SMILES,assay,conditions,IC50
COC(=O)CCC1NC(C(C)=O)=NN(c2ccc3c(C)cc(=O)oc3c2)C1=O (stereo not shown),"enzyme activity, inhibitor, Ellman",pH 8,3.4 µM
O=C(/C=C/c1cccc(F)c1)c1cc2ccccc2oc1=O,"enzyme activity, inhibitor",,30 µM
"COc1ccc2c(c1OC)CC1c3c(cc4c(c3-2)OCO4)CC[N+]1(C)[O-] (single isomer, unassigned; (-))","enzyme activity, inhibitor, Ellman",,150.6 ± 0.54 µM
CCN(CC)c1ccc(/C=N/NC(=O)COc2ccc(Sc3ccc(OCC(=O)N/N=C/c4ccc(N(CC)CC)cc4)cc3)cc2)cc1,"enzyme activity, inhibitor, Ellman",,109 µM
